{"data": "Assay results from different studies", "note": "Each numbered part is a random draw from the data of one study; scales do not carry over between parts."}
{"data": "Study 1", "target": "Replicase polyprotein 1ab, polymerase (rep, Severe acute respiratory syndrome coronavirus 2, UniProt P0DTD1)", "observed": "enzyme activity", "action": "inhibitor", "concentration": "20 µM"}
{"SMILES": "COc1ccc(Cl)cc1NC(=O)Nc1cc(C)nc2ccccc12", "inhibition [%]": 4}
{"SMILES": "CC(C)c1ccc(C(=O)c2cccs2)c(SCCCCCCCCN(C)C)n1", "inhibition [%]": -2.74}
{"SMILES": "CCCOC(C(=O)OC1CCN(C)CC1)(c1ccccc1)c1ccccc1", "inhibition [%]": -0.15}
{"SMILES": "CN(C)CCc1ccc(O)cc1", "inhibition [%]": 2.31}
{"SMILES": "Cc1ccnc2c1NC(=O)c1cccnc1N2C1CC1", "inhibition [%]": -2.92}
{"SMILES": "CC[N+](CC)(CCNC(=O)C(=O)NCC[N+](CC)(CC)Cc1ccccc1Cl)Cc1ccccc1Cl", "inhibition [%]": 0.2}
{"SMILES": "OB1OCc2cc(Cl)ccc21", "inhibition [%]": 1.45}
{"SMILES": "O=C(Oc1cc(S(=O)(=O)c2ccccc2)ccc1[N+](=O)[O-])c1ccc(Cl)cc1", "inhibition [%]": -0.03}
{"SMILES": "COc1ccc(C2CC(c3ccccc3)=NN2c2ccc(S(N)(=O)=O)cc2)cc1 (centres unmarked)", "inhibition [%]": 1.51}
{"SMILES": "C[C@]12CC[C@@H]3c4ccc(OC(=O)c5ccccc5)cc4CC[C@H]3[C@@H]1CC[C@@H]2O", "inhibition [%]": 28.8}
{"SMILES": "CSc1ccc(C(=O)c2[nH]c(=O)[nH]c2C)cc1", "inhibition [%]": 1.64}
{"SMILES": "Cc1ccc(-c2ncn(-c3ccc(Nc4nccc(-c5cccc(N6CCOCC6)c5)n4)cc3)n2)cn1", "inhibition [%]": -1.46}
{"SMILES": "O=C(Cc1ccc(-c2ccc(OCCN3CCOCC3)cc2)cn1)NCc1ccccc1", "inhibition [%]": 0.82}
{"SMILES": "Cc1ccc2c(c1)c1c3n2CCNC3CCC1 (centres unmarked)", "inhibition [%]": -14.4}
{"SMILES": "CC(C(=O)O)c1ccc(C(=O)c2ccccc2)s1 (centres unmarked)", "inhibition [%]": 3.85}
{"SMILES": "C[C@@H](O)[C@H]1C(=O)N2C(C(=O)O)=C(SCCNC=N)C[C@H]12", "inhibition [%]": -10.1}
{"SMILES": "Cc1oc2ccccc2c1CNC(=O)NCc1cccs1", "inhibition [%]": -5.86}
{"SMILES": "O=C(Nc1ccc([N+](=O)[O-])cc1Cl)c1cc(Cl)ccc1O", "inhibition [%]": -4.55}
{"SMILES": "CCN(CC)CCOC(=O)C(c1ccccc1)c1ccccc1", "inhibition [%]": -1.5}
{"SMILES": "O=C(Nc1ccc(O)cc1)c1ccccc1O", "inhibition [%]": 2.94}
{"SMILES": "CSc1ccc(OCc2ncc([N+](=O)[O-])n2C)cc1", "inhibition [%]": -3.13}
{"SMILES": "COc1cc(NC(=O)c2ccccn2)ccc1Cl", "inhibition [%]": -14}
{"SMILES": "CC(C)(O)CC[C@@H](O)[C@](C)(O)[C@H]1CC[C@@]2(O)C3=CC(=O)[C@@H]4C[C@@H](O)[C@@H](O)C[C@]4(C)[C@H]3CC[C@]12C", "inhibition [%]": -4.76}
{"SMILES": "CC(=O)O[C@H]1C[C@H](O[C@H]2[C@@H](O)C[C@H](O[C@H]3[C@@H](O)C[C@H](O[C@H]4CC[C@@]5(C)[C@H](CC[C@@H]6[C@@H]5C[C@@H](O)[C@]5(C)[C@@H](C7=CC(=O)OC7)CC[C@]65O)C4)O[C@@H]3C)O[C@@H]2C)O[C@H](C)[C@H]1O[C@@H]1O[C@H](CO)[C@@H](O)[C@H](O)[C@H]1O", "inhibition [%]": 18.4}
{"SMILES": "COc1cc2nccc(Oc3ccc(NC(=O)Nc4ccc(F)cc4F)c(F)c3)c2cc1OC", "inhibition [%]": 0.57}
{"data": "Study 2", "target": "PABPC1L2, full length, GST fusion (mouse, UniProt A0ABA7IW68)", "method": "RNAcompete", "form": "RNA", "medium": "in vitro", "concentration": "20 nM", "notes": "7-mer, probes averaged, single round", "reference": "mean of 7-mers", "reading": "higher = stronger binding", "Target sequence (chain)": "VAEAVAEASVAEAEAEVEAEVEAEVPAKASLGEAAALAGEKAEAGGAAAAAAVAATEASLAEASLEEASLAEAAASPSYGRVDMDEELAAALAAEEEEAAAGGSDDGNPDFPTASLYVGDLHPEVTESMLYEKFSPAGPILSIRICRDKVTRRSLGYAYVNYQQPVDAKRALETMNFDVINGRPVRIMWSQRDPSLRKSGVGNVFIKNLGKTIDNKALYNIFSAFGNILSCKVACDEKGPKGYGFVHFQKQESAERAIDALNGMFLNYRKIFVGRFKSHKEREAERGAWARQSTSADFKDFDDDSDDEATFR"}
{"Oligonucleotide": "GAACAAG", "7-mer Z-score": 0.383}
{"Oligonucleotide": "GGUUGCC", "7-mer Z-score": -0.191}
{"Oligonucleotide": "UGAAUGU", "7-mer Z-score": -0.206}
{"Oligonucleotide": "AGACGUC", "7-mer Z-score": -0.364}
{"Oligonucleotide": "AUCAGUG", "7-mer Z-score": -0.0754}
{"Oligonucleotide": "UGUCCAU", "7-mer Z-score": -0.26}
{"Oligonucleotide": "GCGCCAG", "7-mer Z-score": -0.231}
{"Oligonucleotide": "CUCUCGU", "7-mer Z-score": -0.476}
{"data": "Study 3", "target": "RNA binding protein fox-1 homolog 2, RRM domain, GST-SBP tag (RBFOX2, Homo sapiens, UniProt O43251-10, residues 100-194)", "method": "RNA Bind-n-Seq", "form": "RNA", "medium": "in vitro", "concentration": "365 nM", "notes": "natural RNA segment, single round, ends assumed", "reference": "no-protein control", "reading": "higher = stronger binding", "all sequences stand within": "GGGAGUUCUACAGUCCGACGAUC … UGGAAUUCUCGGGUGCCAA", "Target sequence (chain)": "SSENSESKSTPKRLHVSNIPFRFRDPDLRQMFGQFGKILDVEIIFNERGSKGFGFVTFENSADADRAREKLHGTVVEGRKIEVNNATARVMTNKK"}
{"Oligonucleotide": "AGCCUUUUCCUAUCCACUUCCCUUACCAAGUGUAUCCAAGCGUGCACCCACCUCCUCAUUGGAUGGCUCCCUCCAUGCACUGACCCUCUGCCUGCCUUUGUACCUCACUC", "RBNS enrichment (R)": 2.03}
{"Oligonucleotide": "GACGAAGGUCACUUAGGCGAUACCCAUGAAGAAUCAAAAAGUUUAUUUUUUUUCUUCCAACAUGUGAUGUGUUGCUCUCCAUUCUUUUAAAUCUCGCACUACAUCUGAUA", "RBNS enrichment (R)": 0.389}
{"Oligonucleotide": "UCAGUGUUUAUUUCCUCAAAACAGACUUUGUUAAUGUAGGAAAUCUCUCCAAGUGGAAACGUGCUAACUUUUUCUGUAAAUCUGAAAUAAAAGGUGCUGUUCCUUCCUCU", "RBNS enrichment (R)": 0.203}
{"Oligonucleotide": "AAUGAGAUUUAACUUGUUGAAUGUGUUCUGUGAGAUGGGGUGUACCACGACUAUGGUGGGAAAAACCAUUUUUUAAAGGACACAUACGAUGGUGUAUCUCUCUGUGUAAU", "RBNS enrichment (R)": 0.296}
{"Oligonucleotide": "GACAGAAAUGUCUCUGGGAUCUGUGGCUGGCUUGCCCCGGGCAUCUCUCCUUUAAGCUCAAGUUUUGAACUCUCUGCGGUUUUCCACCCCUGCCUUCUCAGCCACAUGCU", "RBNS enrichment (R)": 0.276}
{"Oligonucleotide": "UGCCCAGGGAUUGGACCUGGACCUGGCCAAGGCCUUUUGUGUGUGUCGCUGCUGCCGGGCAACGUGCAUUGCUGGGAAGCCGAAGCCGCUGGAGGAGCGGGUGGGGGGGC", "RBNS enrichment (R)": 0.524}
{"Oligonucleotide": "AAUUUCCUUGUUGAGAACAGGAAAGUGGCCAGUAGCCAGGCAAGUCAUAGAAUUGAUUACCCGCCGAAUUCAUUAAUUUACUGUAGUGUUAAGAGAAGCACUAAGAAUGC", "RBNS enrichment (R)": 0.641}
{"Oligonucleotide": "CCCAGGAUCUCAGCCCCAGGCUGGUUGUUUCUACAAAUCUCUCUCAAAUGUAUUAUUUUGGUGACAAAAAUGAAGGAGCUUUGUAAAUUUUUUUUAAAAUUAUGAAUCAU", "RBNS enrichment (R)": 0.76}
{"data": "Study 4", "cell line": "HEK-293T", "observed": "pseudovirus infection", "organism": "VSV pseudotyped with SARS-CoV-2 spike", "concentration": "10 µM", "time": "16 h", "reference": "vehicle-treated"}
{"SMILES": "N=C(N)N/N=C/c1c(Cl)cccc1Cl", "GFP-positive cells": "75.4%"}
{"SMILES": "Cc1ccccc1C(=O)Nc1ccc(C(=O)N2CCCC(O)c3cc(Cl)ccc32)c(C)c1 (centres unmarked)", "GFP-positive cells": "89.9%"}
{"SMILES": "C[C@H](Cc1cc2c(c(C(N)=O)c1)N(CCCO)CC2)NCCOc1ccccc1OCC(F)(F)F", "GFP-positive cells": "103%"}
{"SMILES": "CC(=O)c1c(C)c2cnc(Nc3ccc(N4CCNCC4)cn3)nc2n(C2CCCC2)c1=O", "GFP-positive cells": "96.2%"}
{"data": "Study 5", "target": "Histone acetyltransferase KAT6A, winged helix 2, GST fusion (KAT6A, Homo sapiens, UniProt Q92794, residues 85-181)", "method": "protein binding microarray", "form": "double-stranded DNA, one strand shown", "medium": "in vitro", "concentration": "not given", "notes": "8-mer, flanks averaged, mean of 2 arrays, mostly near background", "reference": "not given", "reading": "higher = stronger binding", "Construct (chain)": "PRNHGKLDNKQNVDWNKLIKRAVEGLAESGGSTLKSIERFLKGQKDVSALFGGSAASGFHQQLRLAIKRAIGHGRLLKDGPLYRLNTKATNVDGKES"}
{"Oligonucleotide": "CGTCCACC", "E-score": -0.085}
{"Oligonucleotide": "CGGGGACC", "E-score": 0.23}
{"Oligonucleotide": "CGTCCATC", "E-score": 0.113}
{"Oligonucleotide": "CAGAGACG", "E-score": 0.0618}
{"Oligonucleotide": "AAAGGATA", "E-score": 0.0154}
{"Oligonucleotide": "ACTGACAT", "E-score": -0.0187}
{"Oligonucleotide": "GCAAATGA", "E-score": 0.0376}
{"Oligonucleotide": "ACAGCTGA", "E-score": -0.0899}
{"data": "Study 6", "target": "Replicase polyprotein 1ab, main protease (rep, Severe acute respiratory syndrome coronavirus 2, UniProt P0DTD1)", "observed": "enzyme activity", "action": "inhibitor", "concentration": "20 µM", "notes": "hit confirmation, with DTT"}
{"Compound": "COC(=O)/C=C/c1cc(O)ccc1O", "inhibition [%]": -54.6}
{"Compound": "C=C1c2cccc(O)c2C(=O)C2=C(O)[C@]3(O)C(=O)C(C(N)=O)=C(O)[C@@H](N(C)C)[C@@H]3[C@@H](O)[C@H]12", "inhibition [%]": 10.3}
{"Compound": "C[C@@](Cc1ccc(O)c(O)c1)(NN)C(=O)O", "inhibition [%]": -7.6}
